Experimental data of several laboratories.
Compare with care: the assays were run in different laboratories. Several values in a cell are separate wells, animals, samples, runs or records.
U2AF2: U2AF2 148-342 (Homo sapiens, UniProt P26368)
Sequence of UniProt P26368 (whole entry, looked up): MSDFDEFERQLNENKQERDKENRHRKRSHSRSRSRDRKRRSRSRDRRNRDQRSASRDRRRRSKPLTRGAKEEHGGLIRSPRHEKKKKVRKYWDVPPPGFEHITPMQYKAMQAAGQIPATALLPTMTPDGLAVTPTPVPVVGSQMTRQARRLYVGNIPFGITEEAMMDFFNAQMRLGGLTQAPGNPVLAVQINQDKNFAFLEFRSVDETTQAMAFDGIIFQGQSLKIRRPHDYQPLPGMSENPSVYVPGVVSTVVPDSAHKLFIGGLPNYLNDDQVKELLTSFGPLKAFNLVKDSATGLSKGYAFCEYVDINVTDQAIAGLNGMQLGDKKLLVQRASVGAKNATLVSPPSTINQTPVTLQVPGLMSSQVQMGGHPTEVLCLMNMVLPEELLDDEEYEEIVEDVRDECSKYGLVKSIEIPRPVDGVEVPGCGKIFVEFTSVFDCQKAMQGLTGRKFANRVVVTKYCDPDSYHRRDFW
B1: human lamin B1; sequence looked up; chain ATATPVPPRMGSRAGGPTTPLSPTRLSRLQEKEELRELNDRLAVYIDKVRSLETENSALQLQVTEREEVRGRELTGLKALYETELADARRALDDTARERAKLQIELGKCKAEHDQLLLNYAKKESDLNGAQIKLREYEAALNSKDAALATALGDKKSLEGDLEDLKDQIAQLEASLAAAKKQLADETLLKVDLENRCQSLTEDLEFRKSMYEEEINETRRKHETRLVEVDSGRQIEYEYKLAQALHEMREQHDAQVRLYKEELEQTYHAKLENARLSSEMNTSTVNSAREELMESRMRIESLSSQLSNLQKESRACLERIQELEDLLAKEKDNSRRMLTDKEREMAEIRDQMQQQLNDYEQLLDVKLALDMEISAYRKLLEGEEERLKLSPSPSSRVTVSRASSSRSVRTTRGKRKRVDVEESEASSSVSISHSASATGNVCIEEIDVDGKFIRLKNTSEQDQPMGGWEMIRKIGDTSVSYKYTSRYVLKAGQTVTIWAANAGVTASPPTDLIWKNQNSWGTGEDVKVILKNSQGEEVAQRSTVFKTTIPEEEEEEEEAAGVVVEEELFHQQGTPRASNRSC
B2: human ATP citrate lyase; sequence looked up; chain MSAKAISEQTGKELLYKFICTTSAIQNRFKYARVTPDTDWARLLQDHPWLLSQNLVVKPDQLIKRRGKLGLVGVNLTLDGVKSWLKPRLGQEATVGKATGFLKNFLIEPFVPHSQAEEFYVCIYATREGDYVLFHHEGGVDVGDVDAKAQKLLVGVDEKLNPEDIKKHLLVHAPEDKKEILASFISGLFNFYEDLYFTYLEINPLVVTKDGVYVLDLAAKVDATADYICKVKWGDIEFPPPFGREAYPEEAYIADLDAKSGASLKLTLLNPKGRIWTMVAGGGASVVYSDTICDLGGVNELANYGEYSGAPSEQQTYDYAKTILSLMTREKHPDGKILIIGGSIANFTNVAATFKGIVRAIRDYQGPLKEHEVTIFVRRGGPNYQEGLRVMGEVGKTTGIPIHVFGTETHMTAIVGMALGHRPIPNQPPTAAHTANFLLNASGSTSTPAPSRTASFSESRADEVAPAKKAKPAMPQDSVPSPRSLQGKSTTLFSRHTKAIVWGMQTRAVQGMLDFDYVCSRDEPSVAAMVYPFTGDHKQKFYWGHKEILIPVFKNMADAMRKHPEVDVLINFASLRSAYDSTMETMNYAQIRTIAIIAEGIPEALTRKLIKKADQKGVTIIGPATVGGIKPGCFKIGNTGGMLDNILASKLYRPGSVAYVSRSGGMSNELNNIISRTTDGVYEGVAIGGDRYPGSTFMDHVLRYQDTPGVKMIVVLGEIGGTEEYKICRGIKEGRLTKPIVCWCIGTCATMFSSEVQFGHAGACANQASETAVAKNQALKEAGVFVPRSFDELGEIIQSVYEDLVANGVIVPAQEVPPPTVPMDYSWARELGLIRKPASFMTSICDERGQELIYAGMPITEVFKEEMGIGGVLGLLWFQKRLPKYSCQFIEMCLMVTADHGPAVSGAHNTIICARAGKDLVSSLTSGLLTIGDRFGGALDAAAKMFSKAFDSGIIPMEFVNKMKKEGKLIMGIGHRVKSINNPDMRVQILKDYVRQHFPATPLLDYALEVEKITTSKKPNLILNVDGLIGVAFVDMLRNCGSFTREEADEYIDIGALNGIFVLGRSMGFIGHYLDQKRLKQGLYRHPWDDISYVLPEHMSM
B3: human KLK7; sequence looked up; chain IIDGAPCARGSHPWQVALLSGNQLHCGGVLVNERWVLTAAHCKMNEYTVHLGSDTLGDRRAQRIKASKSFRHPGYSTQTHVNDLMLVKLNSQARLSSMVKKVRLPSRCEPPGTTCTVSGWGTTTSPDVTFPSDLMCVDVKLISPQDCTKVYKDLLENSMLCAGIPDSKKNACNGDSGGPLVCRGTLQGLVSWGTFPCGQPNDPGVYTQVCKFTKWINDTMKKHR
B4: human ILK; sequence looked up; chain MDDIFTQCREGNAVAVRLWLDNTENDLNQGDDHGFSPLHWACREGRSAVVEMLIMRGARINVMNRGDDTPLHLAASHGHRDIVQKLLQYKADINAVNEHGNVPLHYACFWGQDQVAEDLVANGALVSICNKYGEMPVDKAKAPLRELLRERAEKMGQNLNRIPYKDTFWKGTTRTRPRNGTLNKHSGIDFKQLNFLTKLNENHSGELWKGRWQGNDIVVKVLKVRDWSTRKSRDFNEECPRLRIFSHPNVLPVLGACQSPPAPHPTLITHWMPYGSLYNVLHEGTNFVVDQSQAVKFALDMARGMAFLHTLEPLIPRHALNSRSVMIDEDMTARISMADVKFSFQCPGRMYAPAWVAPEALQKKPEDTNRRSADMWSFAVLLWELVTREVPFADLSNMEIGMKVALEGLRPTIPPGISPHVCKLMKICMNEDPAKRPKFDMIVPILEKMQDK
B5: human SFPQ; sequence looked up; chain MSRDRFRSRGGGGGGFHRRGGGGGRGGLHDFRSPPPGMGLNQNRGPMGPGPGQSGPKPPIPPPPPHQQQQQPPPQQPPPQQPPPHQPPPHPQPHQQQQPPPPPQDSSKPVVAQGPGPAPGVGSAPPASSSAPPATPPTSGAPPGSGPGPTPTPPPAVTSAPPGAPPPTPPSSGVPTTPPQAGGPPPPPAAVPGPGPGPKQGPGPGGPKGGKMPGGPKPGGGPGLSTPGGHPKPPHRGGGEPRGGRQHHPPYHQQHHQGPPPGGPGGRSEEKISDSEGFKANLSLLRRPGEKTYTQRCRLFVGNLPADITEDEFKRLFAKYGEPGEVFINKGKGFGFIKLESRALAEIAKAELDDTPMRGRQLRVRFATHAAALSVRNLSPYVSNELLEEAFSQFGPIERAVVIVDDRGRSTGKGIVEFASKPAARKAFERCSEGVFLLTTTPRPVIVEPLEQLDDEDGLPEKLAQKNPMYQKERETPPRFAQHGTFEYEYSQRWKSLDEMEKQQREQVEKNMKDAKDKLESEMEDAYHEHQANLLRQDLMRRQEELRRMEELHNQEMQKRKEMQLRQEEERRRREEEMMIRQREMEEQMRRQREESYSRMGYMDPRERDMRMGGGGAMNMGDPYGSGGQKFPPLGGGGGIGYEANPGVPPATMSGSMMGSDMRTERFGQGGAGPVGGQGPRGMGPGTPAGYGRGREEYEGPNKKPRF
B6: human RNA helicase DHX15; sequence looked up; chain MSKRHRLDLGEDYPSGKKRAGTDGKDRDRDRDREDRSKDRDRERDRGDREREREKEKEKELRASTNAMLISAGLPPLKASHSAHSTHSAHSTHSTHSAHSTHAGHAGHTSLPQCINPFTNLPHTPRYYDILKKRLQLPVWEYKDRFTDILVRHQSFVLVGETGSGKTTQIPQWCVEYMRSLPGPKRGVACTQPRRVAAMSVAQRVADEMDVMLGQEVGYSIRFEDCSSAKTILKYMTDGMLLREAMNDPLLERYGVIILDEAHERTLATDILMGVLKEVVRQRSDLKVIVMSATLDAGKFQIYFDNCPLLTIPGRTHPVEIFYTPEPERDYLEAAIRTVIQIHMCEEEEGDLLLFLTGQEEIDEACKRIKREVDDLGPEVGDIKIIPLYSTLPPQQQQRIFEPPPPKKQNGAIGRKVVVSTNIAETSLTIDGVVFVIDPGFAKQKVYNPRIRVESLLVTAISKASAQQRAGRAGRTRPGKCFRLYTEKAYKTEMQDNTYPEILRSNLGSVVLQLKKLGIDDLVHFDFMDPPAPETLMRALELLNYLAALNDDGDLTELGSMMAEFPLDPQLAKMVIASCDYNCSNEVLSITAMLSVPQCFVRPTEAKKAADEAKMRFAHIDGDHLTLLNVYHAFKQNHESVQWCYDNFINYRSLMSADNVRQQLSRIMDRFNLPRRSTDFTSRDYYINIRKALVTGYFMQVAHLERTGHYLTVKDNQVVQLHPSTVLDHKPEWVLYNEFVLTTKNYIRTCTDIKPEWLVKIAPQYYDMSNFPQCEAKRQLDRIIAKLQSKEYSQY

CAUGUUUAG (ssRNA)  Kd (U2AF2; sequencing of bound RNA; RNA; motif only): 16 µM
B1 (human lamin B1)  log2 fold change (PP6C (human); co-immunoprecipitation, IP-MS; CYB5R4 knockout cells; concentration not given; baseline: CYB5R4 knockout over parental): -0.49
VVVGASGVGK  remaining protein (HLA-A*11:01 peptide-β2M single-chain trimer; western blot, refers to: pMHC-I; peptide, 293T cells; 60 h, unit not given, with: 100 µg/mL cycloheximide; baseline: time zero): 0.447 and 0.47 and 0.424
B2 (human ATP citrate lyase)  log2 fold change (PP6C (human); co-immunoprecipitation, IP-MS; CYB5R4 knockout cells; concentration not given; baseline: CYB5R4 knockout over parental): 0.71
PKRSFIESNV  normalised SPR binding response (construct, MBP fusion, human SCRIB, PDZ 3-4; surface plasmon resonance; peptide; concentration not given; higher = stronger binding): 81.8 normalised RU
Peginesatide  phosphorylation fold change (ERK1 (MAPK3) human; LC-MS/MS phosphoproteomics, refers to: ERK1 phosphotyrosine site 204; UT7/EPO; 10 nM, 15 min, with: EPO 10 U/mL; baseline: vehicle): 34.9 fold
B3 (human KLK7)  log2 fold change (PP6C (human); co-immunoprecipitation, IP-MS; CYB5R4 knockout cells; concentration not given; baseline: CYB5R4 knockout over parental): 2.03
GUCUUUGGU (ssRNA)  Kd (U2AF2; sequencing of bound RNA; RNA; motif only): 4.33 µM
GEMVGQARILAQATSDLVNAIKDA  rupture force FWHM upper side (vinculin head domain Vd1; complex rupture, AFM single-molecule force spectroscopy; peptide; multiple traces, C-terminal pulling, 800 nm/s): 11.5 pN
B4 (human ILK)  log2 fold change (PP6C (human); co-immunoprecipitation, IP-MS; CYB5R4 knockout cells; concentration not given; baseline: CYB5R4 knockout over parental): -1.6
NPDALPETLV  binding intensity (construct, MBP fusion, human SCRIB, PDZ 3-4; automated holdup; peptide, purified PDZ protein; concentration not given, unit not given; baseline: biotin control resin, higher = stronger binding): 0.265
VVVGAVGVGK  remaining protein (HLA-A*11:01 peptide-β2M single-chain trimer; western blot, refers to: pMHC-I; peptide, 293T cells; 12 h, unit not given, with: 100 µg/mL cycloheximide; baseline: time zero): 0.89 and 0.923
phosphatidylinositol 4,5-bisphosphate  log2 fold change (adenosine A2A receptor thermostabilised; equilibrium dialysis LC-MS; concentration not given; baseline: no protein): 0.118
GSGAGIATEV  normalised SPR binding response (construct, MBP fusion, human SCRIB, PDZ 3-4; surface plasmon resonance; peptide; concentration not given; higher = stronger binding): 15.3 normalised RU
colistin  MIC (Enterobacter cloacae; clinical isolate RKI 5/14): ≤ 0.5 µg/mL
GSGAGIESNV  binding intensity (construct, MBP fusion, human SCRIB, PDZ 3-4; automated holdup; peptide, crude extract; concentration not given, corrected by standard peak, unit not given; baseline: biotin control resin, higher = stronger binding): 0.254
B5 (human SFPQ)  log2 fold change (PP6C (human); co-immunoprecipitation, IP-MS; CYB5R4 knockout cells; concentration not given; baseline: CYB5R4 knockout over parental): -0.15
GSGAGKETEC  binding intensity (construct, MBP fusion, human SCRIB, PDZ 3-4; automated holdup; peptide, crude extract; concentration not given, corrected by standard peak, unit not given; baseline: biotin control resin, higher = stronger binding): 0.338
oxypaeoniflorin  fold induction (Nrf2; Nrf2 induction, inducer; baseline: control): 0.76 fold
KDECVIATEV  binding intensity (construct, MBP fusion, human SCRIB, PDZ 3-4; automated holdup; peptide, purified PDZ protein; concentration not given, unit not given; baseline: biotin control resin, higher = stronger binding): 0.131
B6 (human RNA helicase DHX15)  log2 fold change (PP6C (human); co-immunoprecipitation, IP-MS; CYB5R4 knockout cells; concentration not given; baseline: CYB5R4 knockout over parental): -0.82

For quick reference, copied from above:
oxypaeoniflorin  fold induction (Nrf2; Nrf2 induction, inducer; baseline: control): 0.76 fold
PKRSFIESNV  normalised SPR binding response (construct, MBP fusion, human SCRIB, PDZ 3-4; surface plasmon resonance; peptide; concentration not given; higher = stronger binding): 81.8 normalised RU
